{"data": "Assay results pooled from the literature", "note": "Numbered parts are unrelated; each lists some results of a single study. Several values in a cell are separate wells, animals, samples, runs or records.", "chain of UniProt Q8TF76 (whole entry, looked up)": "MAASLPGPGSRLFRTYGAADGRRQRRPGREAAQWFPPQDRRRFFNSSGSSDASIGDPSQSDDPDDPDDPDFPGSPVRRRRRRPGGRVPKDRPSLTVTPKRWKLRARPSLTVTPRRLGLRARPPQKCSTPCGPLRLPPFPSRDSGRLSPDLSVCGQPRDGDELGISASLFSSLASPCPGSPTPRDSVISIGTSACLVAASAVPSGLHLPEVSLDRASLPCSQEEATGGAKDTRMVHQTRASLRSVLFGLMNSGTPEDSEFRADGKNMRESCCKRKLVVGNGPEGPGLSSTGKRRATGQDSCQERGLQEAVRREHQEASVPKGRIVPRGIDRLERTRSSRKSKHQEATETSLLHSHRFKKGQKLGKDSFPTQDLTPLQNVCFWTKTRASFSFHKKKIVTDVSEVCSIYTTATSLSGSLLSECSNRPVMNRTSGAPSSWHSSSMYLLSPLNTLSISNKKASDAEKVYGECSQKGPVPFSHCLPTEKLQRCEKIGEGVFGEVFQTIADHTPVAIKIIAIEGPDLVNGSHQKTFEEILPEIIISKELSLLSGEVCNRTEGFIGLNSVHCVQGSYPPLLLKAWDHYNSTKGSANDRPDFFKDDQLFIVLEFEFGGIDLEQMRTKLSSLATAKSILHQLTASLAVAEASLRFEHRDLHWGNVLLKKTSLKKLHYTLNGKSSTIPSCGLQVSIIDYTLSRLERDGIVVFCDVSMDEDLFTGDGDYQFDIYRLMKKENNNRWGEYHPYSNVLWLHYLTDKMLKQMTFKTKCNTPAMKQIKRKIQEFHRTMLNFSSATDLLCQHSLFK", "chain of UniProt Q9HC98 (whole entry, looked up)": "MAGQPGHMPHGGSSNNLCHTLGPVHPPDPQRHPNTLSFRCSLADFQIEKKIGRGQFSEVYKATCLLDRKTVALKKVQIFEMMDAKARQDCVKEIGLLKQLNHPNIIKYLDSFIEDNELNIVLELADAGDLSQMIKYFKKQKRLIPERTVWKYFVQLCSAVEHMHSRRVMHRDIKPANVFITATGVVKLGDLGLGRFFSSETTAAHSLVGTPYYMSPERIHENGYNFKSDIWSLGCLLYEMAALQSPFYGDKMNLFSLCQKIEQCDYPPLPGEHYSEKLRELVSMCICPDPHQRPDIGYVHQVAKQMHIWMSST", "chain of UniProt Q9P286 (whole entry, looked up)": "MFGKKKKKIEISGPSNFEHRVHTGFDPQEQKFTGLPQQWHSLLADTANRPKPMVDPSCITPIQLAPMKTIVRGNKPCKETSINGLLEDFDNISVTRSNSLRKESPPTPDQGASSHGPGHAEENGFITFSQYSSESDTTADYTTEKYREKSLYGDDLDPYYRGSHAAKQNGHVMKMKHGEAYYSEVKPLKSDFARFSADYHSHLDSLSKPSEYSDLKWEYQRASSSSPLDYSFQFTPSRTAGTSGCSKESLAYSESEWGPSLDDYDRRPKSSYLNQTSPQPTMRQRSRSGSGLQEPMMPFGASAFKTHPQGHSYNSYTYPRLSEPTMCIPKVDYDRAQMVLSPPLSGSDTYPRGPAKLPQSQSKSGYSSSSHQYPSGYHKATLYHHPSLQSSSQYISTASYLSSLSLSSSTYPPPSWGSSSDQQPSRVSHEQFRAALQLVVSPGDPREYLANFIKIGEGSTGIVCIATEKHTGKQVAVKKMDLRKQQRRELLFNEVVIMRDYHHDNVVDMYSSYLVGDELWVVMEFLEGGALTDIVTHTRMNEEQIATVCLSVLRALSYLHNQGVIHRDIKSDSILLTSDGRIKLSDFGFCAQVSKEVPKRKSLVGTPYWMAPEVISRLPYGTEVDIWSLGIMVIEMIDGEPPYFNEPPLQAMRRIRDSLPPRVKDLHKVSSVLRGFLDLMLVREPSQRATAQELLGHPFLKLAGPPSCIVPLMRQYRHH", "chain of UniProt Q9UL54 (whole entry, looked up)": "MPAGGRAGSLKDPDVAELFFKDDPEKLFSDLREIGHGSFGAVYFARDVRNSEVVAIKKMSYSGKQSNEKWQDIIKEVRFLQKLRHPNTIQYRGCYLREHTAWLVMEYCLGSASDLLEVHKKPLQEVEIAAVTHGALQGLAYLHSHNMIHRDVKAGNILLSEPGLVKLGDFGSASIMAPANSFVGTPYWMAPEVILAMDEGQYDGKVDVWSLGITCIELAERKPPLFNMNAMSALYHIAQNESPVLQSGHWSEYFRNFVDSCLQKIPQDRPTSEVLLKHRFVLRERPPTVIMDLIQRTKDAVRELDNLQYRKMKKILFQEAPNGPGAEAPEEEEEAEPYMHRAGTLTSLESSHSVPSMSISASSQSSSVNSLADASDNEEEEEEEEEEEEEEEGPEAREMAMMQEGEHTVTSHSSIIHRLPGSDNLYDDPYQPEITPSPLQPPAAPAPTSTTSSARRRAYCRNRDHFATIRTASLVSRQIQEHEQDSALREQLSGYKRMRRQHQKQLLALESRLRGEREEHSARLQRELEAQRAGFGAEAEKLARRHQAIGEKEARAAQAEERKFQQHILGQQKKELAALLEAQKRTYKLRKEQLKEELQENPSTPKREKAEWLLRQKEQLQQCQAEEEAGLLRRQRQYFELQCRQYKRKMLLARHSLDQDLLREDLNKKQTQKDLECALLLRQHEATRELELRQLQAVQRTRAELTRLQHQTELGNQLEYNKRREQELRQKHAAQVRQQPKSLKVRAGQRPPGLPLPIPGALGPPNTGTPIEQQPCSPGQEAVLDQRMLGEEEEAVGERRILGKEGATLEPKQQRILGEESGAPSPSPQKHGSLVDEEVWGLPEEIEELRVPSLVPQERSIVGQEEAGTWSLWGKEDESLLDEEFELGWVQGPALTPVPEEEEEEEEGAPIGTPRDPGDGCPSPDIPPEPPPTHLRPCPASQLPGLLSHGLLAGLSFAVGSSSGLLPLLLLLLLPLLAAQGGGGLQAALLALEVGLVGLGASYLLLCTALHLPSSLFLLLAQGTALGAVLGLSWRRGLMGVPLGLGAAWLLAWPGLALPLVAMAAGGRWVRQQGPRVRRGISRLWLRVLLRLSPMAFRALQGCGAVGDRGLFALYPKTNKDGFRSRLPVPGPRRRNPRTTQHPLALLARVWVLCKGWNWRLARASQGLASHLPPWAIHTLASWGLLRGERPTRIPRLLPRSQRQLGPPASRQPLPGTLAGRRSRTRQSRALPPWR", "chain of UniProt Q6XUX3 (whole entry, looked up)": "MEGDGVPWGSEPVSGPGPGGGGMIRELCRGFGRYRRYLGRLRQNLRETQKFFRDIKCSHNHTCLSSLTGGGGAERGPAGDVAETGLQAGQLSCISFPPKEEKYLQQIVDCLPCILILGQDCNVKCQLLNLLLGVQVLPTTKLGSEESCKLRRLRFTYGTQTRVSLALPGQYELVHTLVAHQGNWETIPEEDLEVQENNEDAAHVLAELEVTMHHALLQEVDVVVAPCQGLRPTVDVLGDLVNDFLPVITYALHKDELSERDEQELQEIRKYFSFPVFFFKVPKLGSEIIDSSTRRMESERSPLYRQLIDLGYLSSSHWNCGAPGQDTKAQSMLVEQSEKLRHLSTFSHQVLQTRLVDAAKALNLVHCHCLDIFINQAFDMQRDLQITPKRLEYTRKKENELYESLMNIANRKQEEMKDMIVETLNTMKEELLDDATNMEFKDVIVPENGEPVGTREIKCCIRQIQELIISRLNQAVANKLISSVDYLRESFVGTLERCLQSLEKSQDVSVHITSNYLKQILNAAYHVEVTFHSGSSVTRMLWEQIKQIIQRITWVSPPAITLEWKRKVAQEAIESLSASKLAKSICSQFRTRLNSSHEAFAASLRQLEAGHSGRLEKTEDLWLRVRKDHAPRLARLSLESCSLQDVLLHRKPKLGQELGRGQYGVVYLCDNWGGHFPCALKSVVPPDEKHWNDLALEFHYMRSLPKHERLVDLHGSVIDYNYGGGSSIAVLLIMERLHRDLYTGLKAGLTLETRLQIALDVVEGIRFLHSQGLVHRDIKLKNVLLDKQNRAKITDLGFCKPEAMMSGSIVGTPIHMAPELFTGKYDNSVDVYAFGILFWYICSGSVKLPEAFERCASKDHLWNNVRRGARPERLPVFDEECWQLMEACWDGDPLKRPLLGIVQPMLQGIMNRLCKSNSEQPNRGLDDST", "chain of UniProt Q8WTQ7 (whole entry, looked up)": "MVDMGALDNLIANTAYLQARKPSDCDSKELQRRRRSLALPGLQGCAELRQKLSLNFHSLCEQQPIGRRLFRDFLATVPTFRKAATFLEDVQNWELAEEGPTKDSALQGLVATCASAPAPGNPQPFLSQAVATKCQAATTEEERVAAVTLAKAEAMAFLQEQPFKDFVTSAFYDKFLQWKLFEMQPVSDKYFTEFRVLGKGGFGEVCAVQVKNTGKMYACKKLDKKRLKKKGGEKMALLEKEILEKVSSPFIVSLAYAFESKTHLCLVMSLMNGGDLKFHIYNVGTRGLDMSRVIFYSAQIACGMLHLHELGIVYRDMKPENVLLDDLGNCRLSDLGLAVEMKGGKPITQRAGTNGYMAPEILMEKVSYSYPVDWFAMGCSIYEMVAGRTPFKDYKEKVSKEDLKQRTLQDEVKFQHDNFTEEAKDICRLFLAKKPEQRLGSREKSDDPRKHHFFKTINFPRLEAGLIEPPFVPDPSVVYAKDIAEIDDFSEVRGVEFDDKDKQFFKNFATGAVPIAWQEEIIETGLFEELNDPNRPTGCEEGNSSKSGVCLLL", "chain of UniProt P27361 (whole entry, looked up)": "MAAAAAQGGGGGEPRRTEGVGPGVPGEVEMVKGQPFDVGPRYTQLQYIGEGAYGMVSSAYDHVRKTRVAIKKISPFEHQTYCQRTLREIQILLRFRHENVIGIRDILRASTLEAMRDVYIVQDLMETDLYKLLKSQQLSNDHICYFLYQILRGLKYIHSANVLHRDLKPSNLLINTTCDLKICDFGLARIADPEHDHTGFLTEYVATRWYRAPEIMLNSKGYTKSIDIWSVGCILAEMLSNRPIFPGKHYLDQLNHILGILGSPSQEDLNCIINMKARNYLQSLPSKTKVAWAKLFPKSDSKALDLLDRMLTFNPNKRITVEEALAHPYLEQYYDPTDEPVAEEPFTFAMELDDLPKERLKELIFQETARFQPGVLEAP"}
{"data": "Block 1", "SMILES": "CCC(=O)N[C@H]1CC[C@@H](C(=O)N(C)c2ccc(-c3nc4ccccc4o3)cc2)C1", "observed": "cell-free assay", "technique": "competition with immobilised ligand", "concentration": "1 µM"}
{"target": "MAP3K19 (Homo sapiens, UniProt Q56UN5)", "remaining binding": "69%"}
{"target": "MAP3K12 (Homo sapiens, UniProt Q12852)", "remaining binding": "100%"}
{"target": "PAK5 (Homo sapiens, UniProt Q9P286)", "remaining binding": "100%"}
{"target": "PHKG1 (Homo sapiens, UniProt Q16816)", "remaining binding": "100%"}
{"target": "DSTYK (Homo sapiens, UniProt Q6XUX3)", "remaining binding": "87%"}
{"target": "HASPIN (Homo sapiens, UniProt Q8TF76)", "remaining binding": "100%"}
{"data": "Block 2", "cell line": "A-375", "concentration": "100 µM", "time": "18 h"}
{"SMILES": "CS(=O)(=O)n1cc2c(n1)CN([C@H]1CO[C@H](c3cc(F)ccc3F)[C@@H](N)C1)C2", "viability [%]": 84.3}
{"SMILES": "OC[C@H]1O[C@@H](c2ccc(F)c(Cc3cc4ccccc4s3)c2)[C@H](O)[C@@H](O)[C@@H]1O", "viability [%]": 80}
{"SMILES": "COC(=O)c1ccccc1O", "viability [%]": 95.3}
{"SMILES": "CCOC(=O)[C@H](CCc1ccccc1)N[C@@H](C)C(=O)N1[C@H](C(=O)O)C[C@@H]2CCC[C@@H]21", "viability [%]": 104}
{"SMILES": "COCCOC(=O)C1=C(C)NC(C)=C(C(=O)OC(C)C)C1c1cccc([N+](=O)[O-])c1 (stereo not shown)", "viability [%]": 14.1}
{"data": "Block 3", "SMILES": "O=c1cc(-c2cccc3c2Sc2ccccc2S3)oc(N2CCOCC2)c1", "observed": "enzyme activity", "mode": "inhibitor", "concentration": "0.5 µM", "baseline": "control"}
{"target": "CSNK1G2 (Homo sapiens, UniProt P78368)", "remaining activity": "93.3%"}
{"target": "TAOK2 (Homo sapiens, UniProt Q9UL54)", "remaining activity": "101%"}
{"target": "MAP3K5 (Homo sapiens, UniProt Q99683)", "remaining activity": "104%"}
{"target": "ABL2 (Homo sapiens, UniProt P42684)", "remaining activity": "92%"}
{"target": "GRK7 (Homo sapiens, UniProt Q8WTQ7)", "remaining activity": "99.2%"}
{"target": "FGFR1 (Homo sapiens, UniProt P11362)", "remaining activity": "99.2%"}
{"target": "JAK3 (Homo sapiens, UniProt P52333)", "remaining activity": "108%"}
{"target": "MAP2K2 (Homo sapiens, UniProt P36507)", "remaining activity": "81.8%"}
{"target": "CSNK1G3 (Homo sapiens, UniProt Q9Y6M4)", "remaining activity": "87.9%"}
{"target": "MAPK3 (Homo sapiens, UniProt P27361)", "remaining activity": "118%"}
{"target": "NEK6 (Homo sapiens, UniProt Q9HC98)", "remaining activity": "103%"}
{"target": "FGFR3 (Homo sapiens, UniProt P22607)", "remaining activity": "94.7%"}
{"target": "ULK2 (Homo sapiens, UniProt Q8IYT8)", "remaining activity": "123%"}
{"target": "MST1R (Homo sapiens, UniProt Q04912)", "remaining activity": "111%"}
{"target": "EPHA3 (Homo sapiens, UniProt P29320)", "remaining activity": "119%"}
{"target": "NEK1 (Homo sapiens, UniProt Q96PY6)", "remaining activity": "100%"}
{"target": "MAP3K14 (Homo sapiens, UniProt Q99558)", "remaining activity": "94.9%"}
{"target": "TEK (Homo sapiens, UniProt Q02763)", "remaining activity": "100%"}
{"target": "MAPKAPK2 (Homo sapiens, UniProt P49137)", "remaining activity": "94.2%"}
{"target": "TBK1 (Homo sapiens, UniProt Q9UHD2)", "remaining activity": "88.5%"}
{"data": "Block 4", "organism": "Sarcocystis neurona", "observed": "parasite growth", "concentration": "10 µM", "time": "96 h", "notes": "secondary screen"}
{"Compound": "Cc1ccc(O)c([C@H](CCN(C(C)C)C(C)C)c2ccccc2)c1", "inhibition": "-27.9%"}
{"Compound": "COC(=O)C1=C(C)NC(C)=C(C(=O)OCC(C)C)C1c1ccccc1[N+](=O)[O-] (stereo not shown)", "inhibition": "-29.9%"}
{"Compound": "OC(Cn1cncn1)(Cn1cncn1)c1ccc(F)cc1F", "inhibition": "-7.3%"}
{"Compound": "Fc1ccc([C@@H]2CCNC[C@H]2COc2ccc3c(c2)OCO3)cc1", "inhibition": "-14.2%"}
{"Compound": "CCCC1O[C@@H]2C[C@H]3[C@@H]4CCC5=CC(=O)C=C[C@]5(C)[C@H]4[C@@H](O)C[C@]3(C)[C@]2(C(=O)CO)O1 (stereo partly shown)", "inhibition": "-12.5%"}
{"Compound": "COc1ccc(C2CNC(=O)C2)cc1OC1CCCC1 (stereo not shown)", "inhibition": "-24.3%"}
{"data": "Further values, each from its own experiment"}
{"SMILES": "CCOC(=O)c1ncn2c1CN(C)C(=O)c1cc(F)ccc1-2", "cell line": "mouse MPNST tumor cells", "assay": "high-content nuclear imaging, measured: cell number", "setting": "10 µM, 12 h, mean of 2 replicates", "how to read": "baseline: plate mean, higher = more cells", "quantity": "nuclei count", "result": "1.52 z-score and 1.99 z-score"}
{"SMILES": "CC(C)C[C@@H]1NC(=O)[C@@H](N(C)C(=O)[C@H](CC2CCC2)NC(=O)[C@@H]2C[C@@H](F)CN2C(=O)C2(C(F)(F)F)CC(F)(F)C2)CCCCNC(=O)C2(CC2)NC(=O)[C@H](Cc2cc(Cl)ccc2Cl)N(C)C1=O", "cell line": "human CD34+ HSPC", "assay": "EdU flow cytometry", "setting": "1000 nM, 24 h", "quantity": "S-phase cells", "result": "44.9% and 45.3%"}
{"SMILES": "CC(C)(C)OC(=O)CN(Cc1ccc(Cl)cc1)Cc1ccc([N+](=O)[O-])s1", "cell line": "mouse MPNST tumor cells", "assay": "high-content nuclear imaging, measured: cell number", "setting": "10 µM, 12 h, mean of 2 replicates", "how to read": "baseline: plate mean, higher = more cells", "quantity": "nuclei count", "result": "0.746 z-score"}
{"note": "Some of these lines once more (block 1):"}
{"target": "DSTYK (Homo sapiens, UniProt Q6XUX3)", "remaining binding": "87%"}
{"target": "HASPIN (Homo sapiens, UniProt Q8TF76)", "remaining binding": "100%"}
